# Published values gathered from unrelated publications.
# Compare with care: the assays were run in different laboratories.
SMILES,test,system,conditions,half-life
NC1CCN(C(=O)Oc2ccc(C3CCCC4(C3)OOC3(O4)C4CC5CC(C4)CC3C5)cc2)CC1 (racemic),,"male mouse, plasma","oral, 50 mg/kg",420 min
CCCCCn1ccc(C(=O)NC(C)(C)c2ccc(CNC(C)=O)cc2)n1,,"mouse, plasma","intraperitoneal, 2.5 mg/kg",84 min
COc1nc(CC=C(C)CC=CC(C)=CC(C)C(OC2OC(CO)C(O)C(O)C2O)C(C)=CCO)c(C)c(O)c1OC (centres unmarked),,"C57BL/6 mouse, plasma","oral, 10 mg/kg",22.6 min
O=C(CN1C(=O)C2(CCN(C(=O)c3ccc4[nH]ncc4n3)CC2)c2c(Br)cccc21)NCC(F)(F)F,,"male C57BL/6 mouse, plasma","intraperitoneal, 10 mg/kg",72 min
CC(C)C[C@@H](NC(=O)[C@@H](CCCCN)NC(=O)CNC(=O)CNC(=O)[C@@H]1CSSC[C@H](N)C(=O)NCC(=O)N[C@@H](CCCNC(=N)N)C(=O)N[C@@H](CCCNC(=N)N)C(=O)N[C@@H](C)C(=O)NCC(=O)NCC(=O)N[C@@H](CO)C(=O)N1)C(=O)N[C@H](C)C(=O)N[C@H](CCCCN)C(=O)N[C@H](CC(C)C)C(=O)N[C@H](C)C(=O)N[C@H](CCCCN)C(=O)N[C@H](CCCCN)C(=O)N[C@H](CC(C)C)C(=O)N[C@H](C)C(=O)N[C@H](CCCCN)C(=O)N[C@H](CC(C)C)C(=O)N[C@H](C)C(=O)N[C@H](CCCCN)C(=O)O,,"mouse, plasma","intravenous, 15 mg/kg",15 min
CC(C)=CCC/C(C)=C\CCn1cc(CC(P(=O)(O)O)P(=O)(O)O)nn1,,"CD-1 mouse, plasma","intravenous, 0.5 mg/kg, single dose",6420 min
NC(=O)[C@H](CCC(=O)O)NC(=O)[C@H](CCC(=O)O)NC(=O)[C@H](Cc1ccccc1)NC(=O)[C@H](Cc1ccccc1)NC(=O)OCC1c2ccccc2-c2ccccc21,mass spectrometry,"mouse, blood","intravenous, 10 mg/kg, single dose",38.4 min
CN[C@H](CC(C)C)C(=O)N[C@H]1C(=O)N[C@@H](CC(N)=O)C(=O)N[C@H]2C(=O)N[C@H]3C(=O)N[C@H](C(=O)N[C@H](C(=O)O)c4cc(O)cc(O)c4-c4cc3ccc4O)[C@H](O)c3ccc(c(Cl)c3)Oc3cc2cc(c3O[C@@H]2O[C@H](CO)[C@@H](O)[C@H](O)[C@H]2O[C@H]2C[C@](C)(NCc3ccc(-c4ccc(Cl)cc4)cc3)[C@H](O)[C@H](C)O2)Oc2ccc(cc2Cl)[C@H]1O,,"mouse, plasma","intravenous, 10 mg/kg",720 min

# For quick reference, copied from above:
SMILES,test,system,conditions,half-life
CN[C@H](CC(C)C)C(=O)N[C@H]1C(=O)N[C@@H](CC(N)=O)C(=O)N[C@H]2C(=O)N[C@H]3C(=O)N[C@H](C(=O)N[C@H](C(=O)O)c4cc(O)cc(O)c4-c4cc3ccc4O)[C@H](O)c3ccc(c(Cl)c3)Oc3cc2cc(c3O[C@@H]2O[C@H](CO)[C@@H](O)[C@H](O)[C@H]2O[C@H]2C[C@](C)(NCc3ccc(-c4ccc(Cl)cc4)cc3)[C@H](O)[C@H](C)O2)Oc2ccc(cc2Cl)[C@H]1O,,"mouse, plasma","intravenous, 10 mg/kg",720 min
